Measurements gathered from unrelated publications.
Parts stem from different laboratories: compare values within a part only.
Sequence of UniProt Q9H116 (whole entry, looked up): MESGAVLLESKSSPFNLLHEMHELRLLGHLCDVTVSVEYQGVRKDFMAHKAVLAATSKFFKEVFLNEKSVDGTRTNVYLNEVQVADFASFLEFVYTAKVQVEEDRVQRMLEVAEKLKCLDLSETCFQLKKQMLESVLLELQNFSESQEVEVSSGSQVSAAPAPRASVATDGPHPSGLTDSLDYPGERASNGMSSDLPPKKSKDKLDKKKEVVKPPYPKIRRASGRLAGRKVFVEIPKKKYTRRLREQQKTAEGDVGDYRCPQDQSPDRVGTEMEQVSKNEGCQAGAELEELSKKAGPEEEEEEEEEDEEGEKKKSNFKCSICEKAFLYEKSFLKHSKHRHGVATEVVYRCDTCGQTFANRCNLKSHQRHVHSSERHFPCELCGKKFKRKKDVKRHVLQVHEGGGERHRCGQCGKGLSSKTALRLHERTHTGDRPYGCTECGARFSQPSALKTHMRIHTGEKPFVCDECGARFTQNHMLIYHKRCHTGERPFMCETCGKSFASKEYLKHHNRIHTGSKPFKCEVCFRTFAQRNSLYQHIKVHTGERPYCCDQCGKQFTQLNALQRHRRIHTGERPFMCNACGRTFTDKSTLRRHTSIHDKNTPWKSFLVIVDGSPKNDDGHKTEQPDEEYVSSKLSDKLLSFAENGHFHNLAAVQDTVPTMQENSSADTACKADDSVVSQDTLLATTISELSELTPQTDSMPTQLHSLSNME
Sequence of UniProt P14921 (whole entry, looked up): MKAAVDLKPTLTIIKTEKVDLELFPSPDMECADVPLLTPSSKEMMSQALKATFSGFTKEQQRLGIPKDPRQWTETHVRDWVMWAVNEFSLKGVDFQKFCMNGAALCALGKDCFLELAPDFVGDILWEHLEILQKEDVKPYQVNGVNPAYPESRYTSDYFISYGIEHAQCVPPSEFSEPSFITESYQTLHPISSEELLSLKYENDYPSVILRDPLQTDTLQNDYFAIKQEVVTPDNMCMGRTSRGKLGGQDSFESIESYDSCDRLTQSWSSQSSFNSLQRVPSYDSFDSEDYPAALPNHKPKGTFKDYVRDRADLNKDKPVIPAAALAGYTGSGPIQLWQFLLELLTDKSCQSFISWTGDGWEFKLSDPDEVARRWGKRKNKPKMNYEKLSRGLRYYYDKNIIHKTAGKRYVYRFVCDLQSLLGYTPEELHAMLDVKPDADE
Sequence of UniProt P10914 (1-114, looked up): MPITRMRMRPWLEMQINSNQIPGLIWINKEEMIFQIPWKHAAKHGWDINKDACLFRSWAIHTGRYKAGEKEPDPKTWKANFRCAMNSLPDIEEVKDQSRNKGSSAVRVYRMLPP
Sequence of UniProt Q9Y261 (142-269, looked up): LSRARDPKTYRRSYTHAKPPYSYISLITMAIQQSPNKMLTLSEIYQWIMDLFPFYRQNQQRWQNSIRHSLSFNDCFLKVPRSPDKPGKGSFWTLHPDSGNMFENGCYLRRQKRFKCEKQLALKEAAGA

Series 1
Cell line: HEK-293T/ACE2
Tested at: concentration not given
Time: 16 (unit not given)
Reference: vehicle
| Compound | viability [%] |
| --- | --- |
| C#C[C@]1(O)CC[C@H]2[C@@H]3CCC4=C(CCC(=O)C4)[C@H]3CC[C@@]21C | 104 |
| C[N+]1(C)[C@@H]2C[C@@H](OC(=O)[C@H](CO)c3ccccc3)C[C@H]1[C@@H]1O[C@@H]12 | 99.7 |
| CCOC(=O)c1ccc(C#Cc2ccc3c(c2)C(C)(C)CCS3)nc1 | 95.5 |
| CNC1(C)C2CCC(C2)C1(C)C (centres unmarked) | 107 |

Series 2
Target: Replicase polyprotein 1ab, polymerase (rep, Severe acute respiratory syndrome coronavirus 2, UniProt P0DTD1)
Observed: enzyme activity
Action: inhibitor
Tested at: 20 µM
| Structure (SMILES) | inhibition [%] |
| --- | --- |
| OCCNCCCOc1cccc(Cl)c1Cl | 25.6 |
| O=[N+]([O-])/N=C1\NCCN1Cc1ccc(Cl)nc1 | -7.83 |
| C[C@H](Nc1ncnc2[nH]cnc12)c1nc2ccc(F)cc2c(=O)n1-c1ccccc1 | -5.48 |
| CN(C)C(=O)c1ccc(S(=O)(=O)c2ccc(NC(=O)[C@@](C)(O)C(F)(F)F)c(Cl)c2)cc1 | -0.77 |
| Nc1nc(N)nc(-c2cc(Cl)ccc2Cl)n1 | -1.6 |
| C[N+](C)(C)CCCCCC[N+](C)(C)C | -4.76 |
| NCCCCCc1c[nH]cn1 | -9.74 |
| CCCC(=O)Nc1cccc(NC(=O)c2ccccc2Br)c1 | -2.31 |
| COc1ccc(OC)c([C@@H](O)[C@H](C)N)c1 | 32 |
| C[C@@H]1O[C@@H](Oc2c(-c3cc(O)c(O)c(O)c3)oc3cc(O)cc(O)c3c2=O)[C@H](O)[C@H](O)[C@H]1O | 50.1 |
| CCCCCCNC(=O)Nc1ccc(S(=O)(=O)Nc2ccc(CCNC[C@H](O)COc3ccc(O)cc3)cc2)cc1 | 3.2 |
| COc1cc2nccc(Oc3ccc(NC(=O)NC4CC4)c(Cl)c3)c2cc1C(N)=O | -6.02 |
| COc1ccc(C[C@@H](C)[C@@H](C)Cc2ccc(OC)c(OC)c2)cc1OC | 3.12 |
| COc1ccccc1S(=O)(=O)Nc1ccc2c(c1)CN(C)C(=O)N2 | -1.44 |
| CN1CCC(NC(=O)c2cc(-c3c(O)cc(O)cc3Oc3ccc([N+](=O)[O-])cc3)on2)CC1 | -1.93 |
| CN1C/C=C/CCOc2cccc(c2)-c2ccnc(n2)Nc2cccc(c2)C1 | 1.21 |
| CCc1cc(-c2n[nH]c(C)c2-c2ccc3c(c2)OCCO3)c(O)cc1O | 0.78 |

Series 3
Target: Replicase polyprotein 1ab, main protease (rep, Severe acute respiratory syndrome coronavirus 2, UniProt P0DTD1)
Observed: enzyme activity
Action: inhibitor
Tested at: 20 µM
Setting: hit confirmation, with DTT
| Compound | inhibition [%] |
| --- | --- |
| O=C(O)CCCCCCCCCCCCCCc1ccc(I)cc1 | 4 |
| Cc1ccc(S(=O)(=O)N[C@@H](Cc2ccccc2)C(=O)CCl)cc1 | 99.2 |
| O=[N+]([O-])C(Br)(CO)CO | -5.7 |
| Oc1ccc(C2CNCCc3c2cc(O)c(O)c3Cl)cc1 (centres unmarked) | -21.7 |
| CNc1nc(Nc2cn(C(C)(C)C#N)nc2C)ncc1C(F)(F)F | -11.9 |

Series 4
Target: Sal-like protein 4, full length isoform B (SALL4, Homo sapiens, UniProt Q9UJQ4-2, residues 1-616)
Method: universal PBM
Form: double-stranded DNA, one strand shown
Medium: in vitro
Tested at: not given
Setting: 8-mer, flanks averaged, mean of replicates
Direction: higher = stronger binding
| Sequence | E-score |
| --- | --- |
| CCCCCTAA | -0.0444 |
| ATAGGCAC | 0.0862 |
| CGTATAAA | 0.305 |
| AATTTCAA | 0.249 |
| CGGCCCCA | -0.28 |
| GAACGCGC | -0.224 |
| AAATTATG | 0.405 |
| TCAACGGA | -0.0452 |

Single results of other studies
Method: protein-binding microarray
Form: hairpin DNA
Medium: in vitro
Tested at: not given
Setting: whole hairpin DNA, median over replicate spots
Reference: not given
Direction: higher = stronger binding
| Sequence | target | median fluorescence [a.u.] |
| --- | --- | --- |
| GAGGCCCGAAAGCAAAACGCCTCCTGGCGTTTTGCTTTCGGGCCTCACAC | Interferon regulatory factor 1, DNA-binding domain (IRF1, Homo sapiens, UniProt P10914, residues 1-114) | 560 |
| GAGGCCATGTAGCCAACGCCTCCTGGCGTTGGCTACATGGCCTCACACTC | Hepatocyte nuclear factor 3-beta, forkhead domain (FOXA2, Homo sapiens, UniProt Q9Y261, residues 142-269) | 3280 |
| GAGGCCAGTCGGAAGTTGCCTCCTGGCAACTTCCGACTGGCCTCACACTC | Protein C-ets-1, full length (ETS1, Homo sapiens, UniProt P14921, residues 1-441) | 3370 |
| GAGGCCATTAGGGTAATGCCTCCTGGCATTACCCTAATGGCCTCACACTC (5mC at 34) | GDNF-inducible zinc finger protein 1, full length (GZF1, Homo sapiens, UniProt Q9H116, residues 1-711) | 371 |

Repeated from above (series 1):
| Compound | viability [%] |
| --- | --- |
| CNC1(C)C2CCC(C2)C1(C)C (centres unmarked) | 107 |
| C#C[C@]1(O)CC[C@H]2[C@@H]3CCC4=C(CCC(=O)C4)[C@H]3CC[C@@]21C | 104 |
| CCOC(=O)c1ccc(C#Cc2ccc3c(c2)C(C)(C)CCS3)nc1 | 95.5 |
| C[N+]1(C)[C@@H]2C[C@@H](OC(=O)[C@H](CO)c3ccccc3)C[C@H]1[C@@H]1O[C@@H]12 | 99.7 |
